Experimental data collected from several papers.
“And” joins repeats or separate records; there may be more than shown. Numbers after ± are the reported error.
Chain of UniProt P51955 (whole entry, looked up): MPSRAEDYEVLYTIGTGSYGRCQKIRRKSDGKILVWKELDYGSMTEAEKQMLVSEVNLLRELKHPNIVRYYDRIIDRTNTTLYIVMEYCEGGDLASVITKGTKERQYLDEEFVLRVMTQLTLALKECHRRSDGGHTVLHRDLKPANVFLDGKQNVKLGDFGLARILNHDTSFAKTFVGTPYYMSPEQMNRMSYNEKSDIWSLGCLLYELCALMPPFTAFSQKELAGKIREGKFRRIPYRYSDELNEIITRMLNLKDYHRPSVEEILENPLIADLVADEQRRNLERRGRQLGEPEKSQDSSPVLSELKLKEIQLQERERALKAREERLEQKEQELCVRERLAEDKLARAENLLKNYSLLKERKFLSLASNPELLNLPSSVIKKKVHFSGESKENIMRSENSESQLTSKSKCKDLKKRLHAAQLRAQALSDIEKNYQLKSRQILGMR

SMILES	target or system	test	system	conditions	scale	endpoint	value
O=C1NC2(CC2)COc2ncc(F)cc2[C@H]2COCCN2c2ccn3ncc1c3n2			Sprague-Dawley rat, female, serum	oral, 20 mg/kg/day, 4 weeks daily, end of recovery period		alanine aminotransferase activity	21 ± 4.5 U/L
CC(=O)NCCCC[C@@H]1NC(=O)[C@H](Cc2c[nH]c3c(C)cccc23)NC(=O)[C@H]([C@@H](C)O)NC(=O)[C@H](CC(N)=O)NC(=O)[C@@H](NC(C)=O)C(C)(C)SSC(C)(C)[C@@H](C(=O)N[C@@H](Cc2ccc(OCCN)cc2)C(=O)N[C@@H](Cc2ccc3ccccc3c2)C(=O)NC2(C(=O)N[C@@H](CCC(=O)O)C(=O)N[C@@H](CC(N)=O)C(=O)N[C@@H](Cc3cccnc3)C(=O)N(C)CC(N)=O)CCOCC2)NC1=O	ATP-dependent translocase ABCB1 (ABCB1, Homo sapiens, UniProt P08183)	transport, inhibitor	LLC-PK1 expressing MDR1	30 µM, 90 min, added: [3H]digoxin		efflux ratio	15.4
C[C@@H](c1ccc2nccn2c1)n1nnc2ncc(-c3cn[nH]c3)nc21	human CYP3A4/5	inhibitor	pooled human liver microsomes	reversible inhibition, added: testosterone substrate		IC50	20 µM
COc1ccccc1-c1n[nH]c2nc(NC3CCN(C(=O)Cc4ccc(F)cc4F)CC3)ncc12		bead binding, competition bead pull-down, measured: LINJ.23.0410	Leishmania donovani axenic amastigote extract	10 µM	baseline: vehicle	relative abundance	0.94
Cc1cc(-c2ccc3ccccc3c2)nnc1NCCN1CCN(C)CC1	Caco-2			5 µM, 0.5 h, added: valspodar 1.0 µM		Papp A-B	22 ×10⁻⁶ cm/s
CNC(=O)C[C@H](Cc1ccc(F)cc1)NC(=O)[C@@H](Cc1ccc(Cl)cc1Cl)NC(=O)[C@H](N)Cc1ccccc1C#N	Huh-7-ACE2	CellTiter-Glo		1.562 µM, 48 h, unit not given	baseline: DMSO	viability	0.966 and 1.02 and 0.925
COc1ccccc1-c1n[nH]c2nc(N[C@H]3CC[C@H](NS(=O)(=O)CC(C)C)CC3)ncc12		bead binding, competition bead pull-down, measured: LINJ.29.2220	Leishmania donovani extract	10 µM	baseline: vehicle	relative abundance	0.91
COc1cc2c(cc1NC(=O)c1cncn1C)C[C@H]1[C@H]3CCCC[C@@]23CCN1C			C57BL/6 mouse, plasma	oral, 50 µg/g, 30 min		plasma concentration	8010 ng/mL
CNC(=O)CC1CN(C(=O)c2ccc(C(F)(F)F)cn2)CCN1C(=O)c1cccnn1 (stereo not shown)	Huh-7-ACE2	CellTiter-Glo		0.000191 µM, 48 h, unit not given	baseline: DMSO	viability	1.06 and 1.14 and 1.13
CC(C)(C)C(=O)OCOP(=O)(OCOC(=O)C(C)(C)C)C1CCCN(O)C1=O (stereo not shown)	RXF 393					TGI	1.74 µM
CC[C@H](C)[C@H](NC(=O)[C@H](CO)NC(=O)[C@H](Cc1ccc(O)cc1)NC(=O)[C@H](Cc1ccc(O)cc1)NC(=O)[C@H](CC(N)=O)NC(=O)CNC(=O)[C@H](CO)NC(=O)[C@H](Cc1ccc(O)cc1)NC(=O)[C@H](CO)NC(=O)[C@H](CO)NC(=O)[C@H](CC(N)=O)NC(=O)COCCOCCNC(=O)CN1CCN(CC(=O)O)CCN(CC(=O)O)CCN(CC(=O)O)CC1)C(=O)N[C@@H](CC(C)C)C(N)=O [copper-64 labelled]		dynamic PET	KPC mouse Ptf1a-CreER tdTomato, metastases	intravenous, 4.6 MBq/mouse, 6.5 min, 84 d after tamoxifen		tissue uptake	14.7 %ID/mL
Cc1nc2cccc(OCC(C)(C)C(=O)NC(C)C)c2c(N)c1C(=O)[O-].[Na+]	Escherichia coli	reverse mutation, preincubation	WP2 uvrA	0.32 mg/plate, without S9		revertant colonies	21 ± 3 colonies/plate
Cc1ccc(NS(=O)(=O)c2c(C(=O)N3CCCCCC3)c(C)n(C)c2C)c(Cl)c1	human cells			0.137 µM, 60 h		viability	98.4%
CN(C)[C@H]1C[C@@]23CC[C@@]4(O2)C(=CC[C@]2(C)[C@@H](c5ccc6ccncc6c5)CC[C@H]24)C=C3[C@@H](O)[C@@H]1O	Serine/threonine-protein kinase Nek2 (NEK2, Homo sapiens, UniProt P51955)	ATP probe labelling, inhibitor, KiNativ profiling		1 µM		inhibition	8.3%
CNC(=O)C[C@H](Cc1ccncc1)NC(=O)[C@@H](Cc1cccc(Br)c1)NC(=O)[C@@H](N)Cc1cccc(F)c1	Huh-7-ACE2	CellTiter-Glo		12.5 µM, 48 h, unit not given	baseline: DMSO	viability	1.03 and 1.09 and 1.08
COc1ccc(-n2cc(C(=O)N3C[C@]4(OC(=O)c5ccccc5NC(C)=O)CC[C@H](OC)[C@@]56[C@@H]4C[C@@H]([C@@H]35)[C@@]3(O)C[C@H](OC)[C@H]4C[C@@H]6[C@]3(O)[C@H]4OC)nn2)cc1			rat Sprague-Dawley, plasma	intravenous, 2 mg/kg, 2 h		plasma concentration	5.98 ng/mL

Excerpt of the above:
SMILES	target or system	test	system	conditions	scale	endpoint	value
C[C@@H](c1ccc2nccn2c1)n1nnc2ncc(-c3cn[nH]c3)nc21	human CYP3A4/5	inhibitor	pooled human liver microsomes	reversible inhibition, added: testosterone substrate		IC50	20 µM
COc1ccccc1-c1n[nH]c2nc(NC3CCN(C(=O)Cc4ccc(F)cc4F)CC3)ncc12		bead binding, competition bead pull-down, measured: LINJ.23.0410	Leishmania donovani axenic amastigote extract	10 µM	baseline: vehicle	relative abundance	0.94
